Measured values of several laboratories.
Compare with care: the assays were run in different laboratories. Numbers after ± are the reported error.
UniProt P00761, sequence (whole entry, looked up): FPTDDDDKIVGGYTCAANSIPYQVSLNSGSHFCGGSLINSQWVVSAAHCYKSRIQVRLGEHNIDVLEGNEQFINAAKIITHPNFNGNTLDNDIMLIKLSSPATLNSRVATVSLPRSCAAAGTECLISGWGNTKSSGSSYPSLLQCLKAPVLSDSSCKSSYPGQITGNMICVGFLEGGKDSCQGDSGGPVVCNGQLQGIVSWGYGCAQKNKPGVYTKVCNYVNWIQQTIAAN
UniProt P08684, sequence (whole entry, looked up): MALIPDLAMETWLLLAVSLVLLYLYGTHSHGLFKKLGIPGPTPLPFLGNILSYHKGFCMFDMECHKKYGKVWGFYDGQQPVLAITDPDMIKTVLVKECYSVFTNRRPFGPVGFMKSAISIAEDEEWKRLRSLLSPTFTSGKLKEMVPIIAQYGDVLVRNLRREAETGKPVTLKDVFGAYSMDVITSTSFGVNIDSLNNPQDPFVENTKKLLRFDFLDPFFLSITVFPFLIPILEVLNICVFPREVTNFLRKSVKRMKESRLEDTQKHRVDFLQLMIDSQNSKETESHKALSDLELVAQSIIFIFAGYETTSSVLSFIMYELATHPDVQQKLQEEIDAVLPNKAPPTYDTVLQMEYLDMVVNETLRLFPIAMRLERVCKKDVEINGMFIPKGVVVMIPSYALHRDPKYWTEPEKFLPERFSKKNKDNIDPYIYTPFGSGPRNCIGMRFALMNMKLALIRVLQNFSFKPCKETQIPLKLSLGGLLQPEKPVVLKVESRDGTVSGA

| SMILES | tested on | test | system | conditions | how to read | measurement | value |
| --- | --- | --- | --- | --- | --- | --- | --- |
| Cc1cc(C(=O)NC(C)(C)COc2cccc3c2C(N)=NS(=O)(=O)N3)cc(C)n1 | human peripheral blood lymphocytes | CBPI, preliminary test | – | 6 µg/mL, 24 h | relative to: vehicle control | cytotoxicity | 11% |
| CCN(CC)Cc1cc(Nc2ccnc3cc(Cl)ccc23)ccc1O | COS-7 | – | – | 100 µM, 24 h, 0.1% DMSO, unit not given | relative to: control | apoptosis | 16.4 ± 7.36 |
| CC1(F)CN(C(=O)Cn2c(=O)c(C(=O)NCc3ccc(Cl)cc3)cc3nc(N4CCOC4=O)cnc32)C1 | human cytomegalovirus | – | MRC-5, AD169-GFP | – | relative to: CC50 over EC50 | selectivity ratio | 112 |
| CN1CC[C@H](c2c(O)cc(O)c3c(=O)cc(-c4ccccc4Cl)oc23)[C@H](O)C1 | COS-7 | – | – | 100 µM, 24 h, 0.1% DMSO, unit not given | relative to: control | necrosis | 0.44 ± 0.17 |
| CC1(C)CN(C(=O)Cn2c(=O)c(C(=O)NCc3ccc(Cl)cc3)cc3nccnc32)C1 | human cytomegalovirus | – | MRC-5, AD169-GFP | – | relative to: CC50 over EC50 | selectivity ratio | > 19.4 |
| CC[C@H](C)[C@H](NC(=O)[C@H](CO)NC(=O)[C@H](Cc1ccc(O)cc1)NC(=O)[C@H](CC(=O)O)NC(=O)[C@H](CO)NC(=O)[C@@H](NC(=O)[C@H](Cc1ccccc1)NC(=O)[C@@H](NC(=O)CNC(=O)[C@H](CCC(=O)O)NC(=O)[C@H](C)NC(=O)[C@H](Cc1ccc(O)cc1)NCC(F)(F)F)[C@@H](C)O)[C@@H](C)CC)C(=O)N[C@@H](C)C(=O)N[C@@H](CCSC)C(=O)N[C@@H](CC(=O)O)C(=O)N[C@@H](CCCCN)C(=O)N[C@H](C(=O)N[C@@H](Cc1c[nH]cn1)C(=O)N[C@@H](CCC(N)=O)C(=O)N[C@@H](CCCCNC(=O)COCCOCCNC(=O)COCCOCCNC(=O)CC[C@H](NC(=O)CCCCCCCCCCCCCCCCC(=O)O)C(=O)O)C(=O)N[C@@H](CC(=O)O)C(=O)N[C@@H](Cc1ccccc1)C(=O)N[C@H](C(=O)N[C@@H](CC(N)=O)C(=O)N[C@@H](Cc1c[nH]c2ccccc12)C(=O)N[C@@H](CC(C)C)C(=O)N[C@@H](CC(C)C)C(=O)N[C@@H](C)C(=O)N[C@@H](CCC(N)=O)C(=O)N[C@@H](CCCCN)C(=O)NCC(=O)N[C@@H](CCCCN)C(=O)N[C@@H](CCCCN)C(=O)N[C@@H](CC(N)=O)C(=O)N[C@@H](CC(=O)O)C(=O)N[C@@H](Cc1c[nH]c2ccccc12)C(=O)N[C@@H](CCCCN)C(=O)N[C@@H](Cc1c[nH]cn1)C(=O)N[C@@H](CC(N)=O)C(=O)N[C@H](C(=O)N[C@H](C(=O)N[C@@H](CCC(N)=O)C(=O)O)[C@@H](C)O)[C@@H](C)CC)C(C)C)[C@@H](C)CC | Trypsin (Sus scrofa, UniProt P00761) | LC-MS, refers to: fragment 1-33 | – | 18 h, pH 8.0, 37 °C, with: trypsin 2.5 mg/mL | – | fragment formed | 9% |
| O=C1c2cccc(O)c2C(=O)c2c(O)cc(CO)cc21 | HepaRG co-cultured with HK-2 | MTT | – | 16.67 µM, 24 h | relative to: untreated control | cell viability | 88.9 ± 6.23% |
| O=C(O)C[C@H](O)C[C@H](O)/C=C/c1c(C2CC2)nc2ccccc2c1-c1ccc(F)cc1 | COS-7 | – | – | 30 µM, 24 h, 0.1% DMSO, unit not given | relative to: vehicle control | confluence | 0.66 ± 0.07 |
| Cc1cc(Nc2ccc(S(F)(F)(F)(F)F)cc2)n2nc(C(C)(F)F)nc2n1 | Plasmodium falciparum | – | P. falciparum malaria patients | oral, 400 mg | – | patients with cardiac disorders | 15.4% |
| CN(C)C(=O)CN1CCN(c2cnc3c(cc(C(=O)NCc4ccc(Cl)cc4)c(=O)n3CC(=O)N3CC(C)(F)C3)n2)C1=O | human cytomegalovirus | – | MRC-5, AD169-GFP | – | relative to: CC50 over EC50 | selectivity ratio | > 48.1 |
| COc1c(O)c(C)cc2c1C(=O)c1c(cc(O)c(O)c1O)C2=O | HepaRG co-cultured with HK-2 | MTT | – | 266.67 µM, 24 h | relative to: untreated control | cell viability | 62.1 ± 8.65% |
| CCC(=O)NS(=O)(=O)c1ccc(-c2c(-c3ccccc3)noc2C)cc1 | COS-7 | WST-8 | – | 50 µM, 24 h, 0.1% DMSO, unit not given | relative to: vehicle control | metabolic activity | 0.79 ± 0.18 |
| CC[C@H]1[C@@H](O)[C@@H]2[C@H](CC[C@]3(C)[C@@H]([C@H](C)CCNC(=O)NS(=O)(=O)c4ccc(C(C)(C)C)cc4)CC[C@@H]23)[C@@]2(C)CC[C@@H](O)C[C@@H]12 | Cytochrome P450 3A4 (CYP3A4, Homo sapiens, UniProt P08684) | – | human, plasma | 10 mg, day 1, compound alone | – | Vd/F geometric mean | 431 L |
| COc1cc2ncnc(Nc3ccc(Oc4ccccc4)cc3C)c2cc1OC.O=C(O)C(F)(F)F | COLO 205 (BRAF V600E) | resazurin | – | 1 µM, 72 h, with: trametinib 0 nM | – | viability | 0.712 fraction of control |
| CN1C(C(=O)Nc2ccccn2)=C(O)c2sc(Cl)cc2S1(=O)=O | COS-7 | – | – | 100 µM, 24 h, 0.1% DMSO, unit not given | relative to: control | necrosis | 0.57 ± 0.29 |
| CC[C@H](CO)N(CCN(N=O)[C@H](CC)CO)N=O | Salmonella typhimurium | plate incorporation | TA1535, water | 5000 µg/plate, without S9 test 2 | – | revertant colonies per plate | 29 ± 9 |
| COc1c(O)cc2c(c1O)C(=O)c1c(cc(C)c(O)c1OC)C2=O | HepaRG co-cultured with HK-2 | MTT | – | 266.67 µM, 24 h | relative to: untreated control | cell viability | 58.2 ± 8.21% |
| CC1(F)CN(C(=O)Cn2c(=O)c(C(=O)NCc3ccc(Cl)cc3)cc3nc(N4CCN(CC(=O)O)C4=O)cnc32)C1 | human cytomegalovirus | – | MRC-5, AD169-GFP | – | relative to: CC50 over EC50 | selectivity ratio | > 31.4 |
| Cc1onc(-c2ccccc2)c1-c1ccc(S(N)(=O)=O)cc1 | COS-7 | WST-8 | – | 100 µM, 24 h, 0.1% DMSO, unit not given | relative to: control | metabolic activity | 0.92 ± 0.11 |
| COc1cc2c(c(O)c1OC)C(=O)c1c(cc(C)c(O)c1OC)C2=O | HepaRG co-cultured with HK-2 | MTT | – | 133.33 µM, 24 h | relative to: untreated control | cell viability | 71.2 ± 4.9% |
| COc1cnc2c(cc(C(=O)NCc3ccc(Cl)cc3)c(=O)n2CC(=O)N2CC(C)(F)C2)n1 | human cytomegalovirus | – | MRC-5, AD169-GFP | – | relative to: CC50 over EC50 | selectivity ratio | > 106 |
| COCCOCc1ccc(-c2cc3onc(-c4ccccc4)c3c(=O)n2C)cc1 | COS-7 | – | – | 3 µM, 24 h, 0.1% DMSO, unit not given | relative to: vehicle control | necrotic cells | 0.92 ± 0.14 |
| COc1cc2c(c(O)c1OC)C(=O)c1c(cc(C)c(O[C@@H]3O[C@H](CO)[C@@H](O)[C@H](O)[C@H]3O)c1OC)C2=O | HepaRG co-cultured with HK-2 | MTT | – | 266.67 µM, 24 h | relative to: untreated control | cell viability | 37.2 ± 4.93% |
| Cc1cc(N)c2c(OCC(C)(C)C(=O)NC(C)C)cccc2n1 | Salmonella typhimurium | reverse mutation, plate incorporation | TA98 | 50 µg/plate, without S9 | – | mean revertant colonies | 26 colonies/plate |
| COc1c(O[C@@H]2O[C@H](CO)[C@@H](O)[C@H](O)[C@H]2O)c(C)cc2c1C(=O)c1c(O)cccc1C2=O | HepaRG co-cultured with HK-2 | MTT | – | 66.67 µM, 48 h | relative to: untreated control | cell viability | 60.3 ± 9.01% |
| CN1CCN(c2cnc3c(cc(C(=O)NCc4ccc(Cl)cc4)c(=O)n3CC(=O)N3CC(C)(F)C3)n2)C1=O | human cytomegalovirus | – | MRC-5, Davis | – | relative to: CC50 over EC50 | selectivity ratio | > 201 |
| CCN1CCN(c2cc(N3CCN(CC)CC3)nc(NCCNc3ccnc4cc(Cl)ccc34)n2)CC1 | COS-7 | – | – | 30 µM, 24 h, 0.1% DMSO, unit not given | relative to: vehicle control | apoptotic cells | 8.49 ± 1.6 |
| COc1cc(O)c2c(c1)C(=O)c1cc(C)cc(O)c1C2=O | HepaRG co-cultured with HK-2 | MTT | – | 266.67 µM, 48 h | relative to: untreated control | cell viability | 26.5 ± 5.07% |

Repeated from above:
| SMILES | tested on | test | system | conditions | how to read | measurement | value |
| --- | --- | --- | --- | --- | --- | --- | --- |
| CC[C@H](CO)N(CCN(N=O)[C@H](CC)CO)N=O | Salmonella typhimurium | plate incorporation | TA1535, water | 5000 µg/plate, without S9 test 2 | – | revertant colonies per plate | 29 ± 9 |
| COc1c(O)cc2c(c1O)C(=O)c1c(cc(C)c(O)c1OC)C2=O | HepaRG co-cultured with HK-2 | MTT | – | 266.67 µM, 24 h | relative to: untreated control | cell viability | 58.2 ± 8.21% |
| CC1(F)CN(C(=O)Cn2c(=O)c(C(=O)NCc3ccc(Cl)cc3)cc3nc(N4CCN(CC(=O)O)C4=O)cnc32)C1 | human cytomegalovirus | – | MRC-5, AD169-GFP | – | relative to: CC50 over EC50 | selectivity ratio | > 31.4 |
| Cc1onc(-c2ccccc2)c1-c1ccc(S(N)(=O)=O)cc1 | COS-7 | WST-8 | – | 100 µM, 24 h, 0.1% DMSO, unit not given | relative to: control | metabolic activity | 0.92 ± 0.11 |
